Assay results pooled from the literature.
A part holds a random share of what one study measured.

Block 1 — technique: RNA Bind-n-Seq; form: RNA; matrix: in vitro; tested at: 365 nM; relative to: no-protein control; reading: higher = stronger binding; endpoint: RBNS enrichment (R)
Target: RNA binding protein fox-1 homolog 2, RRM domain, GST-SBP tag (RBFOX2, Homo sapiens, UniProt O43251-10, residues 100-194)
Setting: natural RNA segment, single round, ends assumed
Constant ends, left off below: GGGAGUUCUACAGUCCGACGAUC … UGGAAUUCUCGGGUGCCAA
Target sequence (chain): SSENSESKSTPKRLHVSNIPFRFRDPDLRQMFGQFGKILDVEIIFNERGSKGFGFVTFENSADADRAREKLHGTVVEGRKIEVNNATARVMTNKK
AUUGACGAUGGCAUUGAGCGUAGCUAGCUUAUUUCCAUCACUACGUGUUUUUGAGCUUGCUCUUACGUUUUAAGAGGUGCCAGGGGUACAUUUUUGCACUGAAAUCUAAA: 0.49
AAUUCACUAGGUAGUUGUUGUUGGUUGACUUGGAGGUAGCUGGGUAAUCAACAGCUUUCACUUUAGAUUCAAUGUGAACCGCAGAGUUACUCAUGACCAAGAGUCUGGCA: 0.574
AUCCAAGUCCUCACACCCCUGUCAUCCCAGGAGAUCUUUCCUUGUGGUGGUUUCUGUGAGAAUUGGCCAUCCUGAGGACACAGCCAGGACGGCAGAGGCCUCCUGGCCUC: 0.207
CGAGCGCUCGGUGUUCACACUGAACUGUGGGGUCGACGGGAGGGGUGCCUUUUACAUGUUCUAUUUUGUAUCCUAAUGACAGAAUGAAUAAACCUCUUUAUAUUUGCACA: 0.247
CGAUACCCUCACCAGAUUUCUCAGCAGGGGUGGCCUAGGCCUGGAGCCCUCAGCCAGGGCCGUGGUGCCCACACCCAUCCCCCAGACCCAGGCCCUGACCUGCCUUUUCC: 0.35
AAUGAACUUUAACAUUUUAGUCCAAUGUGACUAGUCAAAUAAACCAAAUAAACUGAGUAUUUUGUCUAAUUUUUGGGAUUGUAUAUUUCUCAGCUGGGUCACAGGUUUGG: 0.439

Block 2 — technique: protein-binding microarray; form: double-stranded DNA, one strand shown; matrix: in vitro; tested at: 940 nM top; setting: 60-bp whole probe; together with: salmon DNA 0.4 mg/ml; relative to: random background probes; reading: higher = stronger binding; endpoint: fitted relative affinity
Target: Interferon regulatory factor 5, full length, phosphomimetic (IRF5, Homo sapiens, UniProt Q13568-2, residues 1-514, S451D/S453D/S456D/S462D)
Constant ends, left off below: GCCTAGCAC … GTGCTAGGTCTTGATTCGCTTGACGCTGCTG
GACGGACAGGGACTGGGGAC: -0.405 z-score
GACGGTATGCTTTTCCTGAC: -0.0431 z-score
TTAGGTTTCGGTAGCGGTTA: 14.8 z-score
GACGATATCAGTTTCAAGAC: 1.07 z-score
TTAGATTTCAGTCTCGGTTA: 4.57 z-score

Block 3 — technique: protein binding microarray; form: double-stranded DNA, one strand shown; matrix: in vitro; tested at: not given; relative to: not given; reading: higher = stronger binding; endpoint: E-score
Target: Histone acetyltransferase KAT6A, both winged helices, GST fusion (KAT6A, Homo sapiens, UniProt Q92794, residues 1-181)
Setting: 8-mer, flanks averaged, mean of 2 arrays, mostly near background
Residues (chain): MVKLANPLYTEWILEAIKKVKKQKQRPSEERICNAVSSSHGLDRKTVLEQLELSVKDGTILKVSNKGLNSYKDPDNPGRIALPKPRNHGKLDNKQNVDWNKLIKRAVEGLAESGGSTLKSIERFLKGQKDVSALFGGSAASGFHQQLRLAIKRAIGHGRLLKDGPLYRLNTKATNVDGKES
AGCTGGCG: 0.0247
CTACTGGC: -0.0479
GAACTAGC: 0.1
CATGCAAA: 0.0228
AGGAACTG: -0.0991
CGAGCCCC: -0.17
CCCTTGGA: -0.123

Further values, each from its own experiment
PhoQ, residues 284 288 289 292 302 303 AQGLTV — fold induction (PhoP, residues 12 14 15 18 19 LHTVL (Escherichia coli, UniProt P23836); Sort-seq, item: YFP reporter; E. coli; PhoQ-PhoP variant library, together with: 10 µM Mg2+; relative to: high Mg2+ state, higher = stronger signaling): 3.64

A few entries again (block 2):
TTAGGTTTCGGTAGCGGTTA: 14.8 z-score
GACGATATCAGTTTCAAGAC: 1.07 z-score
